Published values collected from several papers.
Numbered parts are unrelated; each lists some results of a single study. Positions count from the first letter of the parent shown.

Series 1
Target: Ras GTPase-activating protein-binding protein 1, full length (G3BP1, Homo sapiens, UniProt Q13283)
UniProt Q13283, sequence (whole entry, looked up): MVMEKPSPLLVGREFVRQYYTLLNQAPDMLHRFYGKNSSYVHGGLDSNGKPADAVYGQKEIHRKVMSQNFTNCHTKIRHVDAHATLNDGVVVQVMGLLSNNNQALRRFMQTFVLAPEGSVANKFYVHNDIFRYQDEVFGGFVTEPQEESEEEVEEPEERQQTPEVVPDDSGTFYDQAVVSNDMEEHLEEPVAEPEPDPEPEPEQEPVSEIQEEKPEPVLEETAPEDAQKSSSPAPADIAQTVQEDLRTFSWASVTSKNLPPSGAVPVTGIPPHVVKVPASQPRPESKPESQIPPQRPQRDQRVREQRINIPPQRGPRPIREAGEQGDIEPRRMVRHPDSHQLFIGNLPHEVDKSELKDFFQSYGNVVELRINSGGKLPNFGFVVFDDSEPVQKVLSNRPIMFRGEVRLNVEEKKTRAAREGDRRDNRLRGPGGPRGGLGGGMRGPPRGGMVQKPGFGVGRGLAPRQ
Method: RNA Bind-n-Seq
Molecule type: RNA
Medium: in vitro
Concentration: 200 nM
Notes: whole 134-nt RNA, ends assumed
With: 150 mM LiCl
Relative to: input library
Direction: higher = stronger binding
Quantity: log2 enrichment
Each molecule: 7-deaza-guanosine replaces G
Constant ends, left off below: GGGAGUUCUACAGUCCGACGAUC … UGGAAUUCUCGGGUGUCAAGG
UAACUUUAGAGGAGGAUCUGAUGGAUAUGGCACUGGACGUGGAUUUGGGGAUGGCUAUAAUGGGUAUGGAGGAGGACCUGGAGGUGGCAA: -0.236
UCCUGUGCUACACAUCGUAUGUACCGAAUCGGGUUUUUUUGGUUUUUUUGGUUUUUUUGGAAAGUAUUAUGUUACGCCGUUCGGAUCUGC: 0.425
CACAGACAACACGCACCCACACAGACACAGAGCGAAGGGGUUGGGAUGGGGACAGGGUGCACAGCAGGGCGGGGUAGGACCCCAGCCCCU: 0.243
UGGGAGGUGGAUUUUGUUUAUUUUUUUAGCUCAUGUCCAGGGGUGGGAAUUUUUUUUUAAUAUGUGUCAUGAAUAAAGUUGUUUUUGAAA: -0.195
CACAGACAACACGCACCCACACAGACGCAGAGGGAAGGGGUUGGGAUGGGGACAGGGUGCACAGCAGGGCGGGGUAGGACCCCAGCCCCU: 0.00988
CCUGUGCUACACAUCGUAUGUACCGAAUCGGUUUUUUUGGUUUUUUUGGUUUUUUUGGGGAAAGUAUUAUGUUACGCCGUUCGGAUCUGC: -0.165
UGGCCCUGGUGGCAUGCGGGGAGGAAGAGGUGGCCUCAUGGAUCGUGGUGGUCCCGGUGGAAUGUUCAGAGGUGGCCGUCGUGGAGACAG: -0.261
AAGUCCUGUGCUACACAUCGUAUGUACCGAAUCGGGGCCCCGGCCCCGGGCCCCGGAAAGUAUUAUGUUACGCCGUUCGGAUCUGCACUU: -1.53
CAAGUCCUGUGCUACACAUCGUAUGUACCGAAUCGGGCCCGGGGCCCGGGCCCGGGAAAGUAUUAUGUUACGCCGUUCGGAUCUGCACUU: -1.78
UGUCUGCGGACCUGGUUUCAGCGCUGGUGGGACUGCAGCCGGAGGUCAGCCCAGCAGAGACUGCAGCUGGAGAGGGCAGUGCAACACCAC: 0.835
CCUGUGCUACACAUCGUAUGUACCGAAUCAAAUUUUUUUAAAUUUUUAAAUUUUUUUAAAAAAGUAUUAUGUUACGCCGUUCGGAUCUGC: -2.57

Series 2
Target: JUND, bZIP domain (human)
Method: DHFR protein complementation
Medium: yeast
Notes: single substitutions, most at no-binding floor
Relative to: wild-type JUN-FOS pair
Direction: higher = stronger binding
Quantity: binding fitness
Starting sequence: JUN, bZIP domain (human); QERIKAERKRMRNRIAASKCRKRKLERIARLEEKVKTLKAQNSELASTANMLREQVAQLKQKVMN; partner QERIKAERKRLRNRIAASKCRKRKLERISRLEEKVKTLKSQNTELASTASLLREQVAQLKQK
R30C: -0.823 natural log
I28V: -0.902 natural log
T48I: -0.694 natural log
Q55L: -1.01 natural log
V35L: -0.875 natural log
A46E: -0.434 natural log
A29I: -0.882 natural log
A40Q: -0.398 natural log
S43T: -0.585 natural log
E44M: -0.682 natural log
E54N: -0.929 natural log
A29C: -1.08 natural log
E32R: -0.96 natural log
A40C: -1.03 natural log
T48Q: -0.457 natural log
E54A: -0.793 natural log
K36D: -1.03 natural log
K39Y: -1.06 natural log
Q41D: -1.18 natural log

Series 3
Target: Hepatocyte nuclear factor 3-alpha (Foxa1, Mus musculus, UniProt P35582, residues 1-468, full length assumed)
UniProt P35582, sequence (whole entry, looked up): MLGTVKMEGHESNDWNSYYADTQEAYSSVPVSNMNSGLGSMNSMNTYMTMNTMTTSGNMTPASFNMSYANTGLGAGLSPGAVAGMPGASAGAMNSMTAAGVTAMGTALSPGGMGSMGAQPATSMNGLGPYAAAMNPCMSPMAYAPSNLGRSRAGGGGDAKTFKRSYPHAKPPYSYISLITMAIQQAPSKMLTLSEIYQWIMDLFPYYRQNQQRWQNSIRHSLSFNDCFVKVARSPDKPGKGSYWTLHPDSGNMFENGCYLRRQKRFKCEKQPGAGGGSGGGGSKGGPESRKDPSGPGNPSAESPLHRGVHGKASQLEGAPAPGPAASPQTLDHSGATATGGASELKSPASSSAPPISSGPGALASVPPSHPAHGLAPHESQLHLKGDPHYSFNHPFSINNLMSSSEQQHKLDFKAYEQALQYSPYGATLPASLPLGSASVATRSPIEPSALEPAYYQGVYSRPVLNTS
Method: EMSA with sequencing
Molecule type: double-stranded DNA, one strand shown
Medium: in vitro
Concentration: 10 and 20 nM
Notes: whole designed probe, mean of two concentrations, ends assumed
Relative to: negative control set to 0
Direction: higher = stronger binding
Quantity: normalised bound fraction
Constant ends, left off below: GTGAGCGGTGCCCATTGATGGGGAAC … TTTCACTGGGATCGTGGGGAC
TTTTAAAAGGTTTTTAAAAGAATAAACAATTTTCTTTAAAAAATCATGCTACTGTAACATGATTTTACATAAAGACTGTACATATTGTAACAATGTAAACAAAGAATGATTTACTCTAATGGAAGCCAAGGGTGACAATAAAATCCTCTAAGCTGCAAATGGTGAAGTTATAGGGCCCAACCTGAAAGAGGGG: 0.487 ratio
CTCCAGGGTAGTTGTCCTTCCTGTGGCTGCTCACTGATCCAGGCTACTTTGATCTTGTGACTCAAAGTTCAACAAAATGTGGATGCGTCATTTTATTTACACTTCAATGGCCAGAACTTACGAAATGGCCTCATCCAGTTGCAAGAAGTTTGGGAAATGTAGCCTTCCATATTTACAGGAATAAATGAAAAAC: 0.254 ratio
AAACAAGTTTTAAAATTACAAATGAATGCTCAAGAGGAGAACAAAGTTCTAGAGCCAGTTTTAAGGGTCAAATGGTAAACAAAAGGTCAAAAGGTAATCTAGCCCATATCTATGGTTTCAGCTAAGAGCTCAGAGGGGAGCTAGCTAGTTACTCATTATCGCAATGAATTAGCATAACACTAAGGAGAATTAC: 0.311 ratio
CACCGCGCTCGCACGGCTTTGTCCGTGCTACAAAGCAGCCTGTTAAACTATTGGAACTAATGCGCCGCAGCTGCGCGAGTGACTTCTGCTGCTAAAGTACATAAAAAGTCCTGGGGGGAGGGCTTAACCATCAGATGCCTGCTGCTGGGTTGTTTGGCTAGTCTTTCCATTTGCTTATTCCTGAATCCAAAGG: 0.195 ratio
ATACACAGCAGAGAAGTCACATCCTAGTTACTCTCACTTTCTACCTTGTATTACTACTTTTCGTACCCCTAGCTTATTGCTATTAGTACAATGTAAACAGGGAGTTCACACACACATACCCCTGGTCTAAGAAGAATAAAAAATGAAGGAGATTTCTGTTTGTATAGAAAACAGAAGTCACCTTGACTTTTAT: 0.377 ratio
ACAATTTTTATTTGAAGGTGCCATTTTTCAATATATTCAGATGATTGTGAGTGCCATTGATTCTGTATCATATGAACAATGGCAATACCTTCCATGTTTACATAATATTAAAAACCATGTTAAGACTGAATATTTGGTGTAATGGTGCATCACATTATTCTAGCTTCCATACTAGTTGTTTTATTTGTTTGTT: 0.539 ratio
TAAGAAAGTAATAAACTAGGCTTGCCCTGGCAGTCATATTGTAATGGAACGCAGATACCTCATTGTGTGTGAATTTGAAATTAAAAAACAAAGTAATCTTGGTGAGCTGCTACCATTGCTGCCCCCTCCCTGCCTTGCCCACTAAGGAGAGAGGCACTGCCTTGTTTCCCTTTGTATTTCAAGGAGCTTCTCG: -0.0441 ratio
TTCTGAAGAGTCAGAGAAGTTCTGAGTCACCTGGAGATCATTCCAGGAGGAATAAAAGACTTCTACATGTAACCAGCTTACATCATATCCAAAATAATCTCAAGGAATATTTAAGCATGACCAAAATGCTGTAATTATTTAATGACAAAACCACATATAACAGGAGGTGGGGACAGTTATTATAAGAACTGGC: -0.00909 ratio

Series 4
Target: Histone acetyltransferase KAT6A, winged helix 1, GST fusion (KAT6A, Homo sapiens, UniProt Q92794, residues 1-85)
Method: protein binding microarray
Molecule type: double-stranded DNA, one strand shown
Medium: in vitro
Concentration: not given
Notes: 8-mer, flanks averaged, mean of 2 arrays, mostly near background
Relative to: not given
Direction: higher = stronger binding
Quantity: E-score
Residues (chain): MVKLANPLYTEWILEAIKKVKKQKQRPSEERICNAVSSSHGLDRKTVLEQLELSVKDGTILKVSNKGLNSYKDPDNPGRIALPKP
AGACCATC: -0.0348
AATTAGGG: -0.115
AAGGCTAG: -0.0867
AGGTTTGA: -0.159
AGTTGTAG: -0.175
CAGATAAC: -0.114
CGGGCGTA: 0.352
ACCGGACT: 0.0685
AGGTCCAT: -0.24
CACAAAGG: -0.113
GATAGGGA: -0.167
AGCGATAT: 0.0331
CCTCTACA: -0.199
GAGGTTTA: -0.122
CTCATCAA: -0.168
ACCCTATA: -0.241
ATTGTCCG: 0.168
AGAGTTCA: -0.272
CATAGCTC: -0.103
AGCGAACC: 0.0972
ACACAACA: -0.00198
CCCCGCGA: 0.344

Series 5
Target: ABI1, truncated, D143A, DHFR fusion (Arabidopsis thaliana)
Method: DHFR PCA, deep sequencing
Medium: yeast
Notes: methotrexate growth selection, single substitutions
With: (+)-ABA 2500 µM
Relative to: wild-type fitted maximum
Direction: higher = stronger binding
Quantity: relative binding score
Starting sequence: PYL1, truncated, DHFR fusion (Arabidopsis thaliana); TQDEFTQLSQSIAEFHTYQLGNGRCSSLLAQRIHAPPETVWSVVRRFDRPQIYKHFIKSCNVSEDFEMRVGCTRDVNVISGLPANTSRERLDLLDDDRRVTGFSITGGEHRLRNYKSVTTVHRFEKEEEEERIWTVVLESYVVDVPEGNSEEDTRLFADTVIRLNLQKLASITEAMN; partner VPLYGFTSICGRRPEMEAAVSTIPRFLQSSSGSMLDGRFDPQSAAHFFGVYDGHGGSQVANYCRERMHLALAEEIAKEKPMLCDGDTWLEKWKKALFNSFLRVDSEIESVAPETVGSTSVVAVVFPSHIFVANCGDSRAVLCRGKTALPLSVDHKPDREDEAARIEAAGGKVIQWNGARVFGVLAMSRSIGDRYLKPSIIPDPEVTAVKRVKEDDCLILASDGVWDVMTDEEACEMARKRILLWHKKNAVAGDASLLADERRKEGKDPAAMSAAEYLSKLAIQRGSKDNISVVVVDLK
C72H: 95.2%
A84M: 34.4%
I162P: -4.55%
Q51S: 87.8%
L91G: -1.36%
M68D: 91.2%
R74P: -4.83%
S171N: 94.2%
S117W: 11.4%
T106K: 99%
F157P: -10.7%
A175G: 96.2%
P83C: 74.3%
D153F: 18.9%
R45M: 69.1%
R98A: 101%
T119P: -2.52%

Series 6
Target: CCNE2, cyclin fold, Cln2 fusion (human)
Method: yeast growth competition, sequencing
Medium: yeast
Notes: weak parent motif
Relative to: not given
Direction: higher = stronger binding
Quantity: normalised enrichment score
Starting sequence: MICAL3 docking peptide (human); LQLRRQLSFSEDS
LQLRRQLNFSEDS [S8N]: 0.501
LQLRRQLSHSEDS [F9H]: -0.336
LQLRLQLSFSEDS [R5L]: 0.0203
LGLRRQLSFSEDS [Q2G]: 0.0151
LQLRRQLSFSPDS [E11P]: 0.554
LQLRRQLSFSADS [E11A]: 0.553
LQRRRQLSFSEDS [L3R]: 0.29
LELRRQLSFSEDS [Q2E]: 0.0604
LQLRRQLSFSEQS [D12Q]: 0.562
LQLRRSLSFSEDS [Q6S]: -0.181
LQLRRQLSFSKDS [E11K]: 0.867
LQLRRILSFSEDS [Q6I]: 0.729
LQLCRQLSFSEDS [R4C]: -0.0149
LQLRRQLSFSEHS [D12H]: 0.384
LQLRRALSFSEDS [Q6A]: -0.0525
LQLRRQLRFSEDS [S8R]: -0.00999
LQLRRQLCFSEDS [S8C]: 0.206

Repeated from above (series 5):
D153F: 18.9%
I162P: -4.55%
F157P: -10.7%
R45M: 69.1%
R74P: -4.83%
